# Measured values pooled from the literature.
# Protocols differ between the studies behind these lines. Numbers after ± are the reported error.
# GSTO1: Glutathione S-transferase omega-1 (GSTO1, Homo sapiens, UniProt P78417)
# APP: Amyloid-beta precursor protein (APP, Homo sapiens, UniProt P05067)
Structure (SMILES),target or system,assay,test system,setting,scale,endpoint,result
O=C1O[C@H]2[C@@H]3OC(=O)c4cc(O)c(O)c(O)c4-c4c(O)c(O)c5oc(=O)c6c(c(O)c(O)c7oc(=O)c4c5c76)-c4c(cc(O)c(O)c4O)C(=O)OC[C@H]3OC(O)[C@@H]2OC(=O)c2cc(O)c(O)c(O)c2-c2c1cc(O)c(O)c2O (mixture of isomers),"PDIA6 (Homo sapiens, UniProt Q15084)",di-eosin-GSSG reductase activity,,"20 µM, 15 min",,inhibition,inhibited
O=C(O)C[C@H](NC(=O)[C@H](CC(=O)O)NC(=O)[C@H](CC(=O)O)NC(=O)[C@H](CC(=O)O)NC(=O)[C@H](CC(=O)O)NC(=O)[C@H](CC(=O)O)NC(=O)[C@H](CC(=O)O)NC(=O)[C@H](CC(=O)O)NC(=O)[C@H](CC(=O)O)NC(=O)[C@H](CC(=O)O)NC(=O)[C@H](CC(=O)O)NC(=O)[C@H](CCCCNC(=O)c1ccc(C(=O)NCCOCCOB2BBBBBB3BBBB3B2)cc1)NC(=O)CN1CCN(CC(=O)O)CCN(CC(=O)O)CCN(CC(=O)O)CC1)C(=O)O [gallium-67 labelled],,,"ddY male mice, heart","intravenous, 37 kBq, 1 h",,tissue uptake,0.32 %ID/g
C[C@H]1CN(c2n[nH]c3nc(N[C@H]4CC[C@H](NS(=O)(=O)CCC(F)(F)F)CC4)ncc23)CCO1,"TLK2 (Homo sapiens, UniProt Q86UE8)","inhibitor, Kinobeads competition profiling",,0.16 µM,reference: vehicle,relative abundance,1.04
COc1cc(Nc2ncc(F)c(Nc3ccc4c(n3)NC(=O)C(C)(C)O4)n2)cc(OC)c1OC,"PIM1 (Homo sapiens, UniProt P11309)",KINOMEscan,,10 µM,,inhibition,24%
O=C(c1ccc(Cl)cc1)N1CCN2C(=O)N(OC(=O)N3CCOc4ccccc43)C(=O)C2C1 (stereo not drawn),GSTO1,MS-based ABPP,SW-620 conditioned medium,10 µM,"reference: compound over DMSO, lower = more inhibition",mean protein ratio,1.12
O=C(Nc1cccnn1)N1CCC(=Cc2cccc(Oc3ccc(C(F)(F)F)cn3)c2)CC1,"dopamine D4.2 receptor, human",binding,,"50 µM, together with: [3H]spiperone",,inhibition,29%
CC(C)C[C@@H]1NC(=O)[C@H](CC(C)C)NC(=O)[C@H](Cc2c[nH]c3ccccc23)NC(=O)[C@H](CO)NC(=O)[C@H](Cc2c[nH]c3ccccc23)NC(=O)[C@@H]2CCCN2C(=O)[C@H](CC(C)C)NC(=O)[C@H](Cc2c[nH]cn2)NC(=O)[C@@H]2CCCN2C(=O)[C@H](CC(N)=O)NC(=O)[C@H](C)NC(=O)[C@H](Cc2ccc(O)cc2)NC(=O)[C@H](CS)NC(=O)[C@H](CCCCNC(=O)CN2CCN(CC(=O)O)CCN(CC(=O)O)CCN(CC(=O)O)CC2)NC1=O [lutetium-177 labelled],,,"Balb/c mouse, female, 4T1 tumour, lung","intravenous, 3.7 MBq, 4 h",,tissue uptake,0.08 ± 0.03 %ID
Nc1c2c(nc3c1C(c1ccc(Cl)c(Cl)c1)c1ccc(OCC(=O)c4ccccc4)cc1O3)CCCC2 (stereo not drawn),APP,"Aβ42 self-aggregation, inhibitor, thioflavin T fluorescence",,1 µM,,inhibition,44%
COc1ccc2[nH]c([S+]([O-])Cc3ncc(C)c(OC)c3C)nc2c1 (stereo not drawn),GSTO1,,,5 µM,,inhibition,100%
CC(C(=O)Nc1ccc2c(c1)B(O)OC2)c1cccc(Oc2ccccc2)c1 (stereo not drawn),"Genome polyprotein, NS2B-NS3 protease (dengue virus type 2, UniProt P29990)","enzyme activity, FRET",dengue virus serotype 2,"50 µM, together with: substrate 50 µM",,inhibition,≤ 10%
CN1CCN(c2nc(N)c3ccccc3n2)CC1,"GABA-A receptor; GABA-A site (alpha1/beta2 interface), with gamma-2 subunit (Homo sapiens, UniProt P14867+P47870)",radioligand binding,,0.1 µM,,inhibition,4.6%
Nc1c2c(nc3c1C(c1cccc([N+](=O)[O-])c1)c1ccc(OCC(=O)c4ccc(Cl)cc4)cc1O3)CCCC2 (stereo not drawn),APP,"Aβ42 self-aggregation, inhibitor, thioflavin T fluorescence",,0.1 µM,,inhibition,15%
C[C@H](C(=O)N[C@H]1COc2ccccc2[C@@H]1S(C)(=O)=O)c1ccc(F)cc1,"Na+/K+-ATPase, pig heart",enzyme activity,,"10 µM, Eurofins selectivity panel",,inhibition,-4%
O=C(Nc1cnccc1Cl)N1CCN(Cc2ccc3c(c2)OC(F)(F)O3)CC1,"AVPR2 (Homo sapiens, UniProt P30518)",binding,,"50 µM, together with: [3H][Arg8]vasopressin",,inhibition,-1%
COc1cc2c(Oc3ccc4[nH]c(C)cc4c3F)ccnc2cc1OCC1(N)CC1,,,paediatric recurrent refractory sarcoma,12 mg,,Thrombocytopenia incidence,18.2%
N=C(N)Nc1ccc2c(c1)B(O)OC2,"Genome polyprotein, NS2B-NS3 protease (West Nile virus, UniProt P06935)","enzyme activity, FRET",,"50 µM, together with: substrate 50 µM",,inhibition,15 ± 2%
C[C@@H](O)[C@@H](CO)NC(=O)[C@@H](CCCNC(=N)N)NC(=O)[C@@H]1CCCN1C(=O)[C@@H]1CSSC[C@H](NC(=O)[C@H](Cc2ccccc2)NC(=O)CN2CCN(CC(=O)O)CCN(CC(=O)O)CCN(CC(=O)O)CC2)C(=O)N[C@@H](Cc2ccc(O)cc2)C(=O)N[C@@H](Cc2ccccc2)C(=O)N[C@@H](CCC(N)=O)C(=O)N[C@@H](CC(N)=O)C(=O)N1 [gallium-68 labelled],,,"Wistar rat, stomach","intravenous, 8 MBq, 120 min, group mean",,tissue uptake,0.05 %ID/g
Cc1cc(C)cc(COc2cc3c(cc2OCc2cc(C)cc(C)c2)[C@H]2C[C@](O)(Cc4cn(-c5ccc(S(=O)(=O)F)cc5)nn4)C[C@H](C)N2CC3)c1,"Rab GDP dissociation inhibitor beta, with Rab1A (Homo sapiens, UniProt P50395)","GDI2-Rab1A interaction, NanoLuc complementation",,6.25 µM,,inhibition,87.6%
CC[C@H](C)[C@H](NC(=O)[C@H](Cc1ccccc1)NC(=O)[C@H](CCC(=O)O)NC(=O)[C@H](CCCNC(=N)N)NC(=O)[C@H](C)NC(=O)[C@H](C)NC(=O)[C@H](CCC(N)=O)NC(=O)[C@H](CCC(=O)O)NC(=O)[C@H](CCC(=O)O)NC(=O)[C@H](CC(C)C)NC(=O)[C@H](Cc1ccc(O)cc1)NC(=O)[C@H](CO)NC(=O)[C@H](CO)NC(=O)[C@@H](NC(=O)[C@H](CC(=O)O)NC(=O)[C@H](CO)NC(=O)[C@@H](NC(=O)[C@H](Cc1ccccc1)NC(=O)[C@@H](NC(=O)CNC(=O)[C@H](CCC(=O)O)NC(=O)[C@H](C)NC(=O)CCc1c[nH]cn1)[C@@H](C)O)[C@@H](C)O)C(C)C)C(=O)N[C@@H](C)C(=O)N[C@@H](Cc1c[nH]c2ccccc12)C(=O)N[C@@H](CC(C)C)C(=O)N[C@H](C(=O)N[C@@H](CCCNC(=N)N)C(=O)NCC(=O)N[C@@H](CCCNC(=N)N)C(=O)N[C@@H](CCCCNC(=O)COCCOCCNC(=O)COCCOCCNC(=O)CC[C@H](NC(=O)CCCCCCCCCCCCCCCCC(=O)O)C(=O)O)C(=O)NCC(=O)NCC(=O)N[C@@H](CO)C(=O)N[C@@H](CCCCNc1c(NCCCCCN(O)C(=O)CCC(=O)NCCCCCN(O)C(=O)CCC(=O)NCCCCCN(O)C(C)=O)c(=O)c1=O)C(=O)O)C(C)C [zirconium-89 labelled],,,"rat, stomach","iv, 3 nmol/kg, 24 h, ex vivo",,tissue uptake,0.31 %ID/g
O=C(Nc1cccc(B(O)O)c1)c1cccc(OCc2ccccc2)c1,"Genome polyprotein, NS2B-NS3 protease (dengue virus type 2, UniProt P29990)","enzyme activity, FRET",dengue virus serotype 2,"50 µM, together with: substrate 50 µM",,inhibition,≤ 10%
COC(=O)C1=CCCN(C)C1,"Acetyl-CoA acetyltransferase, mitochondrial (Homo sapiens, UniProt P24752)",enzyme activity,human primary leukaemia cells,"concentration not given, 72 h",,inhibition,inhibited
O=c1[nH]c2cc(-c3ccccc3)sc2c(=O)n1O,"Tripartite terminase subunit 3, C-terminal nuclease domain (Human betaherpesvirus 5, UniProt P16732)","endonuclease activity, ELISA",,"20 µM, together with: dsDNA",,inhibition,97%
CN(C(=O)n1cnc(-c2ccc[n+]([O-])c2)c1)C1CCCCC1,"ZAP70 (Homo sapiens, UniProt P43403)",kinase activity,,"50 µM, together with: poly(Glu,Tyr)",,inhibition,0%
COc1ccc(N2C(=O)N(c3c(C)cccc3Cl)Cc3cnc(Nc4ccc(C5CCN(C)CC5)cc4OC)nc32)nc1,"PASK (Homo sapiens, UniProt Q96RG2)",kinase activity,,0.5 µM,,inhibition,-0.48%
CC[C@H](C)[C@@H]1NC(=O)[C@@H]2CCCN2C(=O)[C@H](CC(C)C)NC(=O)[C@H](CC(C)C)NC(=O)CNC(=O)[C@@H](NC(=O)[C@@H](NC(=O)[C@H](CC(=O)O)NC(=O)CNC(=O)[C@@H](NC(=O)[C@H](C)NC(=O)CNC(=O)[C@H](CCCCN)NC(=O)[C@H](CC(C)C)NC(=O)[C@H](CC(C)C)NC(=O)[C@H](CCCCN)NC(=O)CNC(=O)[C@@H](NC(=O)[C@@H](N)CC(C)C)C(C)C)C(C)C)C(C)C)CSSC[C@@H](C(=O)O)NC1=O,,"RNA-seq, measured: Hcn4","mouse, traumatic brain injury model, frontal cortex and hippocampus",dose not given,reference: TBI alone,log2 fold change,-1.28
CC(Nc1nc(N2CCN(CCN)CC2)nc2ccccc12)c1ccccc1 (stereo not drawn),Vero-E6,CellTiter-Glo ATP,,"72 h, second round 5-point","reference: DMSO 0%, hyamine -100%, more negative, more toxic",maximum response,-12.4%
OB1OCc2ccccc21,"Genome polyprotein, NS2B-NS3 protease (West Nile virus, UniProt P06935)","enzyme activity, FRET",,"50 µM, together with: substrate 50 µM",,inhibition,≤ 10%

# A few entries again:
Structure (SMILES),target or system,assay,test system,setting,scale,endpoint,result
COc1cc(Nc2ncc(F)c(Nc3ccc4c(n3)NC(=O)C(C)(C)O4)n2)cc(OC)c1OC,"PIM1 (Homo sapiens, UniProt P11309)",KINOMEscan,,10 µM,,inhibition,24%
O=C(c1ccc(Cl)cc1)N1CCN2C(=O)N(OC(=O)N3CCOc4ccccc43)C(=O)C2C1 (stereo not drawn),GSTO1,MS-based ABPP,SW-620 conditioned medium,10 µM,"reference: compound over DMSO, lower = more inhibition",mean protein ratio,1.12
O=C(Nc1cccnn1)N1CCC(=Cc2cccc(Oc3ccc(C(F)(F)F)cn3)c2)CC1,"dopamine D4.2 receptor, human",binding,,"50 µM, together with: [3H]spiperone",,inhibition,29%
